# Measurements from different studies.
# Numbered parts are unrelated; each lists some results of a single study.

# Study 1
# Target: Prothrombin, mature alpha-thrombin (F2, Homo sapiens, UniProt P00734)
# Technique: aptamer microarray, sandwich
# Molecule type: DNA with 2'F-ANA
# Medium: in vitro
# Concentration: 200 nM
# Setting: whole 15-mer aptamer, many near background
# Added: Cy3 exosite-II aptamer, 400 nM
# Direction: higher = stronger binding
# Strand: GGTTGGTGTGGTTGG
Modification,mean fluorescence intensity
2'F-ANA at 1 4 8 11 12 15,252 a.u.
2'F-ANA at 3 5 6 10 12 15,59 a.u.
2'F-ANA at 1 6 7 8 9 11 14,58.2 a.u.
2'F-ANA at 3 4 6 8 10 13 14,160 a.u.
2'F-ANA at 2 3 7 15,866 a.u.
2'F-ANA at 1 4 5 6 7 8,62.9 a.u.
2'F-ANA at 2 3 6 7 9 10 11 12 13 14,225 a.u.
2'F-ANA at 2 3 4 6 8 10 12,297 a.u.
2'F-ANA at 1 2 3 8 9 10 11 15,65.2 a.u.
2'F-ANA at 4 7 8 9 12 13 15,395 a.u.
2'F-ANA at 6 7 8 10 11 12,207 a.u.
2'F-ANA at 2 5 11 12 13 14 15,49.3 a.u.
2'F-ANA at 1 4 9 11 12 13,138 a.u.
2'F-ANA at 1 2 3 4 5 7 8 13 15,98 a.u.
2'F-ANA at 1 3 5 7 9 10 11 12 14 15,48.5 a.u.
2'F-ANA at 1 3 4 5 9 12 15,109 a.u.
2'F-ANA at 1 2 4 5 8 9 10 11 13 14,49.1 a.u.
2'F-ANA at 1 2 4 5 6 9 12 13 15,85.7 a.u.
2'F-ANA at 6 7 11 13 15,333 a.u.

# Study 2
# Target: Histone acetyltransferase KAT6A, both winged helices, GST fusion (KAT6A, Homo sapiens, UniProt Q92794, residues 1-181)
# Technique: protein binding microarray
# Molecule type: double-stranded DNA, one strand shown
# Medium: in vitro
# Concentration: not given
# Setting: 8-mer, flanks averaged, mean of 2 arrays, mostly near background
# Relative to: not given
# Direction: higher = stronger binding
# Residues (chain): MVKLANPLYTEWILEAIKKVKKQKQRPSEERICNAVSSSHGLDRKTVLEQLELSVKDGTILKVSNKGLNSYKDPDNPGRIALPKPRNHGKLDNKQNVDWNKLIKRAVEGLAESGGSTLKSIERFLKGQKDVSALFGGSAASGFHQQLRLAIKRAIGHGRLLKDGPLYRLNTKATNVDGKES
Strand,E-score
GACTCCGA,0.0116
AGCGCGCC,0.368
CCGCTGAC,0.234
CCTTGCAG,-0.0216
ACAATTAG,-0.155
CTGGCCTA,-0.141
CGAAGTTC,0.0743
AGCACGCA,0.121
ATTACAGG,0.00963
ACTTTGAA,-0.095
CTGAGTAC,-0.0703
ATTATGAA,-0.0348
CAAGTGGC,-0.0489
CGTCTGTC,0.134
CGGAGAAA,0.203
ATGAATTC,0.0377
AAGATGTG,-0.272
AGAAATTG,-0.14
CATCGTAG,-0.0305
AGCGTTGA,0.0244
TGCCTACA,-0.115
GCTGTCAA,0.0531
TATGCACA,-0.212
GGTGCAAC,-0.0306
CCACAGTC,-0.221

# Study 3
# Target: RING finger protein unkempt homolog, zinc fingers 1-6, GST-SBP tag (UNK, Homo sapiens, UniProt Q9C0B0, residues 30-357)
# Sequence of UniProt Q9C0B0 (30-357, looked up): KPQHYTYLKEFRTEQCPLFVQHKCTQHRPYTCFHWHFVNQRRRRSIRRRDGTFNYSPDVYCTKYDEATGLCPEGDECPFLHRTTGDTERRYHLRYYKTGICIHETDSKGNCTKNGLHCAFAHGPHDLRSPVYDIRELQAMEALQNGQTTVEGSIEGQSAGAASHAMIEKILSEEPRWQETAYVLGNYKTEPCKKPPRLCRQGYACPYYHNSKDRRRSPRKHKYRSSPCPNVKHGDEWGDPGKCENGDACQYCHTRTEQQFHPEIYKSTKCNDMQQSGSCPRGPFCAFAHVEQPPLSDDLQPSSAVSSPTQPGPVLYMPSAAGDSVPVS
# Technique: RNA Bind-n-Seq
# Molecule type: RNA
# Medium: in vitro
# Concentration: not given
# Setting: RNA with constant flanks, human and mouse sites, ends assumed
# Relative to: input RNA pool
# Direction: higher = stronger binding
Strand,bound/input enrichment [ratio]
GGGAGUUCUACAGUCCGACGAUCUUGGAGCAGCCCGUGGUGGUGCAGAGCGUGGGCACGGAUGGACGUGUCUUCCAUUUCCUAGUGUUUCAACUGAAUACCACAGACCUGGACUGUAACGAGGGUGUCAAGAAUUUGGCCUGGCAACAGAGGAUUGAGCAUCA,0.147
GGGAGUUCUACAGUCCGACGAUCUUUGGCUCCUGUUACUUGCCUGCGUGGAGAGUUAAGCUGGAGCUCUGCUUUGAACGAUAAAUAAAAGCUUAGCCUCGACGAGACAUAAAUGGAUCUAAAGACAGCGGUGUUCAACGCAGCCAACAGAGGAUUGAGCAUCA,0.104
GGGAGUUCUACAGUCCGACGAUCACCCACACAGGGCGCUCGGAGAUUUUUUUUUUUUAAAGCAGGGUUAACUGUUUUUUGGCAGCUUGGUUUCUGGGGGACUCUAUAGAAGGCCUUUCGGGAUUUCUUUCUUUGGGGGGAGGGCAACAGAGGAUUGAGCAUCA,1.69
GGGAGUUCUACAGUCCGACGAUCAAUCAAGGUUACCAUUAUAAUUUAUCUCUCUAUUUUGGGCCUUCUGCUUCUGUACAUGGUAUAUCUUACCUUAGUUGAGCCCAUCCUGAAGAGGCGCCUCUUUGGACACUCCCAGCUGUUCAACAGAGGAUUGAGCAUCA,0.348
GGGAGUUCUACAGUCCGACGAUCAAGAAAGAAAAGGAACAAGCAAAGCAGCUACGAAAGAGAAAUUGGGAAGCCUUAAAAAACAUACUUGACAAUAUGGCUAACGUUACAUACUCUACCACUUGGUCUGAAGCCCAGCAGUAUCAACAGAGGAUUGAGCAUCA,0.308
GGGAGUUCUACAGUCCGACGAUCUGUGAAAGUGAGGGGAGGCUCCUGUCCCCCUCUCUUAAGGUCCCCAAACCUGGGAGUGCAUAGGUACUAAAUCAAGCAGUGCAACUUGUAAUUAAGCAGCUGCAGUGUUUACAUGUUUCUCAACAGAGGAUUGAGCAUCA,0.293
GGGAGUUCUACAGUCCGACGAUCGUAUUUCAGUUUGCAGUAGAUUGUGAGUGUGUGCGCUAAGUAAAAGUUCCAUGAUUCACAAUUUGGGUAUUAACCAUAUCAAAGAAGCUGUUACUGGUCAGCAGAAUCUAAUGAUGUGCUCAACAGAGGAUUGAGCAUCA,0.263
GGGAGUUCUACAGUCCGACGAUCAAGAUGAAGCUGAUGGAAAAUCUGAAUACUUUAGACCUUCAAAACAAUGACCUUUUGCAGAUUCCCCCAGAGCUUGGGAACUGUGUGCAGCUACGGACACUACUGCUAGAUGGAAAUCCACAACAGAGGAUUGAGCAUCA,0.261
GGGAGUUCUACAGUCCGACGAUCGACCUGAAGAAGCUCCGGGUGAAAGAGCUGAAGAAGAUCCUGGACGACUGGGGGGAGAUGUGCAAAGGCUGUGCAGAAAAGUCUGACUAUAUCCGGAAGAUAAAUGAACUGAUGCCUAAACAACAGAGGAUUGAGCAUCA,0.244
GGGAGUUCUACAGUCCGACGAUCAACACAUUUAAUGAACAUCAUACACAAGACAGCAACAUACCUUUCUUUCUUGGUCAGACCAUUAGAUGGAGAGGAUUAUGUCUACUGAAAAUACUUUUGGCACGCCAUCACUUCAGCAAACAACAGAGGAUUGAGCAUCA,0.258
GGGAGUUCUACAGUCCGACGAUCCAGCCAGCAAACUUGAUAGUGCUUUUGGUCCUAGAUGAUUUUUAUCAAAUAAGUGGAUUGAUUAGUUAAGUUCAGGUAAUGUUUAUGUAAUGAAAAACAAAUAGCAUCCUUCUUGUUUCACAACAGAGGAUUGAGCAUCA,1.75

# Study 4
# Target: Sal-like protein 4, full length isoform B (SALL4, Homo sapiens, UniProt Q9UJQ4-2, residues 1-616)
# Technique: universal PBM
# Molecule type: double-stranded DNA, one strand shown
# Medium: in vitro
# Concentration: not given
# Setting: 8-mer, flanks averaged, mean of replicates
# Direction: higher = stronger binding
Strand,E-score
AAACCTCT,0.0147
ATCGAGAC,-0.0531
GAGCTCAC,-0.301
CAGATTTC,-0.00164
ATGCACAA,0.152
CCTCCTCC,-0.266
CATGGCGG,-0.217
GGTAGTTA,0.0148
ATTGTTGG,0.134
CTATTCAA,0.235
ATGGCGTG,0.0205
GAAAATCA,0.239
AATTTCGC,0.118
CAAGGGAC,-0.261
AACAGGAT,-0.00773
CCAAGAAA,0.0968
CGCCGGGC,-0.404
TGAACTCA,0.00397
CCCTGGCC,-0.299
ACCACCGT,-0.211
AAGCTCCT,-0.129
GAAAATGC,0.0882
CAACATCC,-0.0868
ATAGCGAG,0.0131
CGAGACGA,-0.256
